Assay results of several laboratories.
Each line is one published result; not all experiments were run side by side. ± marks the error that the study gave.

Cc1ccc(S(=O)(=O)N[C@@H](Cc2ccccc2)C(=O)CCl)cc1  efficacy (HEK293 expressing MOR; morphine-induced cAMP overshoot, HTRF cAMP; 1 µM, with: NKH 477 25 nM; reference: morphine control): 49%
CC[C@H](C)[C@H](NC(=O)[C@@H](NC(=O)[C@H](N)Cc1ccccc1)C(C)C)C(=O)N[C@@H](C)C(N)=O  viability (PC-12; Aβ42-induced neurotoxicity, inhibitor, MTT; concentration not given, 6 h, 37 °C, peptide to Aβ42 1:2, with: Aβ42 2 µM; reference: untreated cells): 95.2%
[Met(O)35]Aβ42  viability decrease (rat primary cortical neurons; MTT; 10 µM, 48 h; reference: medium control): 31 ± 1%
O=C(/C=C/c1ccc2c(c1)OCO2)NCCc1ccc(Cl)cc1  EBV-EA positive cells (Raji; TPA-induced EBV-EA expression, inhibitor; 100-fold molar ratio to TPA, 48 h, with: TPA 32 pmol/mL; reference: TPA control): 83 ± 2.4%
Cl.Cl.Oc1ccc2c3c1O[C@H]1c4[nH]c5c(c4C[C@@]4(O)[C@@H](C2)N(CC2CC2)CC[C@]314)C[C@@]1(O)[C@H]2Cc3ccc(O)c4c3[C@@]1(CCN2CC1CC1)[C@H]5O4  efficacy (HEK293 expressing MOR; morphine-induced cAMP overshoot, HTRF cAMP; 1 µM, with: NKH 477 25 nM; reference: morphine control): 119%
CC[C@@H](C)[C@@H](NC(=O)[C@@H](N)C(C)C)C(=O)N[C@H](C(=O)N[C@@H](C)C(N)=O)[C@@H](C)CC  viability (PC-12; Aβ42-induced neurotoxicity, inhibitor, MTT; concentration not given, 6 h, 37 °C, peptide to Aβ42 1:2, with: Aβ42 2 µM; reference: untreated cells): 92.8%
NNc1ncc(S(=O)(=O)NC(=S)Nc2ccccc2)c(=O)[nH]1  mRNA level (RAW264.7; qPCR, refers to: IL-6; concentration not given, compound at quarter of IC50, with: LPS 1 µg/mL; reference: LPS control): 0.131 ± 0.01 fold change
amyloid beta-42 Met35-sulfone  viability decrease (rat primary cortical neurons; MTT; 10 µM, 48 h; reference: medium control): 40 ± 2%
CN(C)CCCNC(=O)/C=C/c1ccc2c(c1)OCO2  EBV-EA activation (Raji; 500-fold of TPA (mol ratio), 48 h, with: TPA 32 pmol/mL; reference: TPA alone): 53.5 ± 1.4%
O=c1cc(-c2ccc(O)c(O)c2)oc2cc(O)cc(O)c12  inhibition of latency reversal (J-Lat 10.6 cells; refers to: GFP-positive cells; 15 µM, 21 days, spontaneous, after wash-out; reference: DMSO 0.1%): 55.4 ± 1.4%
COc1ccc2c(c1N)CCCC=C2c1cc(OC)c(OC)c(OC)c1  GI50 (DU-145; cell growth or viability, SRB; 48 h): 0.00223 µM
CC[C@H](C)[C@H](NC(=O)[C@@H](NC(=O)CN)C(C)C)C(=O)N[C@@H](C)C(N)=O  viability (PC-12; Aβ42-induced neurotoxicity, inhibitor, MTT; concentration not given, 6 h, 37 °C, peptide to Aβ42 1:2, with: Aβ42 2 µM; reference: untreated cells): 94.3%
N.N.[Cl][Pt][Cl]  IC50 (HCT-116; cell viability, MTS; 48 h): 49.7 ± 1.3 µM
CC(C)Oc1cccc(CC(=O)N2CCC[C@@](CC[N+]34CCC(c5ccccc5)(CC3)CC4)(c3ccc(Cl)c(Cl)c3)C2)c1.[Cl-]  ERK activity (HEK293 expressing NK1R; nuclear ERK, antagonist, FRET biosensor; concentration not given, 30 min, with: substance P): inhibited
ClC1=C(Cl)[C@]2(Cl)[C@@H]3[C@@H]4C[C@@H]([C@H]5O[C@@H]45)[C@@H]3[C@@]1(Cl)C2(Cl)Cl  lowest effective concentration (human iPSC-derived cardiomyocytes; beat peak frequency; 30 min): 3 µM
[Met(O2)35]Aβ40  apoptotic cells (rat primary cortical neurons; TUNEL; 10 µM, 48 h): 14.3 ± 0.6%
CCOP(=S)(OCC)Oc1ccc([N+](=O)[O-])cc1  inotropic effect (human iPSC-derived cardiomyocytes; calcium flux; 10 µM, 30 min): positive
O=P1(N(CCCl)CCCl)NCCCO1 (stereo not shown)  viability (U-87 MG; cell growth or viability, WST-1; 500 µM, 24 h): 56.3%
PPAIIIT  mobile fraction CN-YFP (rat hippocampal neurons, AKAP150 RNAi, AKAP79 expression; FRAP; peptide, dendritic spines; dose not given, 32 °C): 61.6 ± 0.7%
C[C@@H]1CC[C@@]2(OC1)O[C@H]1[C@@H](O)[C@H]3[C@@H]4CC[C@H]5C[C@@H](O[C@@H]6O[C@H](CO)[C@H](O[C@@H]7O[C@H](CO)[C@@H](O)[C@H](O[C@@H]8OC[C@@H](O)[C@H](O)[C@H]8O)[C@H]7O[C@@H]7O[C@H](CO)[C@H](O)[C@H](O[C@@H]8O[C@H](CO)[C@@H](O)[C@H](O)[C@H]8O)[C@H]7O)[C@H](O)[C@H]6O)[C@H](O)C[C@]5(C)[C@H]4CC[C@]3(C)[C@H]1[C@@H]2C  OCR (HepG2; Seahorse respirometry; concentration not given, 1 h, dosed at MMP IC50, with: 1 µM FCCP; reference: basal): 115.2 ± 0.13%
CC(C)C[C@H](NC(=O)[C@@H](NC(=O)[C@@H](N)C(C)C)C(C)C)C(=O)N[C@@H](C)C(N)=O  viability (PC-12; Aβ42-induced neurotoxicity, inhibitor, MTT; concentration not given, 6 h, 37 °C, peptide to Aβ42 1:2, with: Aβ42 2 µM; reference: untreated cells): 100%
CC(C)c1ccc2c(c1)CC[C@H]1[C@](C)(CN)CCC[C@]21C  IC50 (HFK normal keratinocytes; cell viability, MTS; 24 h): 10 ± 0.36 µM
CC[C@H](C)[C@H](NC(=O)[C@H](CCCCN)NC(=O)[C@@H](NC(=O)[C@H](CCC(N)=O)NC(=O)[C@H](CCCNC(=N)N)NC(=O)[C@@H](N)CC(=O)O)[C@@H](C)CC)C(=O)N[C@@H](Cc1c[nH]c2ccccc12)C(=O)N[C@@H](Cc1ccccc1)C(=O)N[C@@H](CCC(N)=O)C(=O)N[C@@H](CC(N)=O)C(=O)N[C@@H](CCCNC(=N)N)C(=O)N[C@@H](CCCNC(=N)N)C(=O)N[C@@H](CCSC)C(=O)N[C@@H](CCCCN)C(=O)N[C@@H](Cc1c[nH]c2ccccc12)C(=O)N[C@@H](CCCCN)C(=O)N[C@@H](CCCCN)C(=O)N[C@H](C(=O)N[C@@H](C)C(=O)N[C@@H](CC(C)C)C(=O)N[C@@H](CC(=O)O)C(=O)N[C@@H](Cc1c[nH]c2ccccc12)C(=O)N[C@@H](CO)C(=O)N[C@@H](Cc1c[nH]c2ccccc12)C(=O)N[C@@H](CC(C)C)C(=O)N[C@@H](CCC(N)=O)C(=O)N[C@H](C(=O)N[C@@H](CCC(=O)O)C(=O)O)[C@@H](C)O)[C@@H](C)O  JNK pathway activation (rheumatoid arthritis synovial fibroblasts; concentration not given, with: IL-1β): no effect
CC(C)[C@H](CO)Nc1nc(Nc2cc(N)cc(Cl)c2)c2ncn(C(C)C)c2n1  inhibition (A549 EGFR reporter cells; EGFR-induced granule formation; 10 µM, with: 500 nM EGF; negative means activation): 62%
CCCCC(CC)COP(=O)(Oc1ccccc1)Oc1ccccc1 (stereo not shown)  inotropic effect (human iPSC-derived cardiomyocytes; calcium flux; 10 µM, 30 min): positive
CO[C@H]1/C=C\C=C(/C)C(=O)NC2=CC(=O)C(NCCN(C)C)=C(C[C@@H](C)C[C@H](OC)[C@H](O)[C@@H](C)/C=C(\C)[C@@H]1OC(N)=O)C2=O  inhibition (A549 EGFR reporter cells; EGFR-induced granule formation; 10 µM, with: 500 nM EGF; negative means activation): 92%
O=C1CC(=O)CC([C@@H]2C[C@H]2c2cc(C(F)(F)F)cc(C(F)(F)F)c2)C1 (racemic)  neuroprotection (rat primary cortical neurons; viability; up to 100 µM, with: MG132 100 nM): positive
CC1(C(=O)O)C2CCC(O2)C1(C)C(=O)O (stereo not shown)  Emax (HEK293 expressing MOR; morphine-induced cAMP overshoot, HTRF cAMP; 1 µM, with: NKH 477 25 nM; reference: morphine control): 86%
CC(=O)Oc1ccccc1C(=O)Nc1ncc([N+](=O)[O-])s1  OCR (HepG2; Seahorse respirometry; concentration not given, 1 h, dosed at MMP IC50, with: 1 µM FCCP; reference: basal): 127 ± 1.38%
ClC1=C(Cl)C2(Cl)C3C(Cl)C=CC3C1(Cl)C2(Cl)Cl (stereo not shown)  lowest effective concentration (human iPSC-derived cardiomyocytes; beat peak frequency; 30 min): 10 µM
COc1cc(/C=C/C(=O)CC(=O)/C=C/c2ccc(O)c(OC)c2)ccc1O  OCR (HepG2; Seahorse respirometry; concentration not given, 1 h, dosed at MMP IC50, with: 1 µM FCCP; reference: basal): 111 ± 2.82%
N.N.[Cl][Pt][Cl]  GI50 (lymphosarcoma cells; trypan blue; 48 h): 6 ± 0.5 µM
CC(C)=CCC[C@]1(C)C=Cc2c(O)c3c(c(CC=C(C)C)c2O1)O[C@]12C(=C[C@@H]4C[C@H]1C(C)(C)O[C@@]2(C/C=C(/C)C(=O)O)C4=O)C3=O  apoptotic cells (EJ; annexin V/PI flow cytometry; 1.0 µM, 24 h, with: 5 mM NAC pretreatment 2 h): 8.3 ± 0.8%
[Met(O)35]Aβ40  apoptotic cells (rat primary cortical neurons; TUNEL; 10 µM, 48 h): 11.5 ± 0.7%
Oc1ccc(Cl)cc1Cc1ccccc1  OCR (HepG2; Seahorse respirometry; concentration not given, 1 h, dosed at MMP IC50, with: 1 µM FCCP; reference: basal): 151.5 ± 0.39%
Cl[C@H]1[C@H](Cl)[C@@H](Cl)[C@@H](Cl)[C@H](Cl)[C@H]1Cl  lowest effective concentration (human iPSC-derived cardiomyocytes; beat peak frequency; 30 min): 30 µM
Oc1cc(Cl)c(Cl)c(Cl)c1  OCR (HepG2; Seahorse respirometry; concentration not given, 1 h, dosed at MMP IC50, with: 1 µM FCCP; reference: basal): 202.5 ± 1.47%
R(−)-N-allylnorapomorphine hydrobromide  efficacy (HEK293 expressing MOR; morphine-induced cAMP overshoot, inhibitor; up to 1 µM, with: NKH477 25 nM; reference: morphine control): 65%
Oc1ccc(Cl)cc1Cc1cc(Cl)ccc1O  OCR (HepG2; Seahorse respirometry; concentration not given, 1 h, dosed at MMP IC50, with: 1 µM FCCP; reference: basal): 164.2 ± 0.81%
C=CCN1CC[C@]23c4c5ccc(O)c4O[C@@H]2/C(=N/N=C2\CC[C@@]4(O)C6Cc7ccc(O)c8c7[C@@]4(CCN6CC=C)[C@@H]2O8)CC[C@@]3(O)C1C5.Cl.Cl  efficacy (HEK293 expressing MOR; morphine-induced cAMP overshoot, HTRF cAMP; 1 µM, with: NKH 477 25 nM; reference: morphine control): 95%

For quick reference, copied from above:
O=c1cc(-c2ccc(O)c(O)c2)oc2cc(O)cc(O)c12  inhibition of latency reversal (J-Lat 10.6 cells; refers to: GFP-positive cells; 15 µM, 21 days, spontaneous, after wash-out; reference: DMSO 0.1%): 55.4 ± 1.4%
COc1ccc2c(c1N)CCCC=C2c1cc(OC)c(OC)c(OC)c1  GI50 (DU-145; cell growth or viability, SRB; 48 h): 0.00223 µM
CC[C@H](C)[C@H](NC(=O)[C@@H](NC(=O)CN)C(C)C)C(=O)N[C@@H](C)C(N)=O  viability (PC-12; Aβ42-induced neurotoxicity, inhibitor, MTT; concentration not given, 6 h, 37 °C, peptide to Aβ42 1:2, with: Aβ42 2 µM; reference: untreated cells): 94.3%
